Assay results of several laboratories.
Numbered parts are unrelated; each lists some results of a single study. Positions count from the first letter of the parent shown.

Sample 1 — method: protein binding microarray; molecule type: double-stranded DNA, one strand shown; medium: in vitro; concentration: not given; relative to: not given; direction: higher = stronger binding
Target: Histone acetyltransferase KAT6A, winged helix 2, GST fusion (KAT6A, Homo sapiens, UniProt Q92794, residues 85-181)
Setting: 8-mer, flanks averaged, mean of 2 arrays, mostly near background
Target sequence (chain): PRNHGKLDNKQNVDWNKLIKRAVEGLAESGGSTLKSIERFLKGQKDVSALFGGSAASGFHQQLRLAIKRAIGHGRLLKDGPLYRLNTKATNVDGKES
Sequence	E-score
ACAAGCTG	0.131
CGCCCCCC	-0.00089
AGAGAGTA	-0.14
GCTCATAC	-0.0205
CCGCGTTA	0.114
CCTAAGAG	-0.0326
CACCCGAC	0.176
ATATGACA	-0.0449

Sample 2 — method: competition protein-binding microarray; molecule type: double-stranded DNA, one strand shown; medium: in vitro; concentration: 2 µM; with: Pho4 competitor, 0.05 µM; direction: higher = stronger binding; all sequences stand within: … GTCTTGATTCGCTTGACGCTGCTG
Target: Centromere-binding protein 1, full length, His-tagged (CBF1, Saccharomyces cerevisiae, UniProt P17106, residues 1-351)
Chain of UniProt P17106 (whole entry, looked up): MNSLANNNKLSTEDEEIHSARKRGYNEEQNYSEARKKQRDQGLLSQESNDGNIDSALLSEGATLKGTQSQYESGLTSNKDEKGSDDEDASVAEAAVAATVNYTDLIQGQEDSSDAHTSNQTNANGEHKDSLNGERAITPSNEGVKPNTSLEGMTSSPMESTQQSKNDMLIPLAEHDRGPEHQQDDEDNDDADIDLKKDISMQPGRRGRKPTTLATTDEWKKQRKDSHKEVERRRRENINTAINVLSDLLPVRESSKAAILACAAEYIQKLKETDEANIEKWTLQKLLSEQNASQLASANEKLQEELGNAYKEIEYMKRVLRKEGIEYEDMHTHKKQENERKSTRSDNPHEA
Setting: whole 60-bp probe, lowest competitor level
Sequence	fluorescence intensity [a.u.]
AAACCAGACAAGAGTCAGGTGACGCTGCAGATGAAA	1200
AAATTACTAAGTTGGTTCGTGGGTGACGCCGTATGA	65
CTAACGAAGGTTTGTCACAGTACTTACAAGCCAAGT	90.9
ATGCGAGCGAACCGGCACATGTACCAAACTTTATCA	148
CTAACGAAGGTTTGCCCTGTGGGTGACAAGCCAAGT	61.3
CTTCAGTCCTCAAGGGGCGTGCTTTTTGCTCTTGCT	66.7

Sample 3 — target: CCND1, cyclin fold, Cln2 fusion (human); method: yeast growth competition, sequencing; medium: yeast; setting: weak parent motif; relative to: not given; direction: higher = stronger binding
Starting sequence: SAMHD1 docking peptide (human); ASKSRVQLFKDDP
Substitution	normalised enrichment score
ASKSSVQLFKDDP [R5S]	0.334
AWKSRVQLFKDDP [S2W]	0.53
ASKSGVQLFKDDP [R5G]	0.358

Single results of other studies
Molecule	target	test	system	conditions	scale	quantity	value
PhoQ, residues 284 288 289 292 302 303 TSTLRA	PhoP, residues 12 14 15 18 19 TPWLV (Escherichia coli, UniProt P23836)	Sort-seq, item: YFP reporter	E. coli	PhoQ-PhoP variant library, with: 10 µM Mg2+	relative to: high Mg2+ state, higher = stronger signaling	fold induction	7.18

Excerpt of the above (sample 2):
Sequence	fluorescence intensity [a.u.]
CTTCAGTCCTCAAGGGGCGTGCTTTTTGCTCTTGCT	66.7
CTAACGAAGGTTTGCCCTGTGGGTGACAAGCCAAGT	61.3
